Measurements of several laboratories.
Lines come from different studies, so protocols differ. ± marks the error that the study gave.
Target: NAD-dependent protein deacetylase sirtuin-2 (SIRT2, Homo sapiens, UniProt Q8IXJ6)
Sequence (Q8IXJ6 1-389, as in one of the studies): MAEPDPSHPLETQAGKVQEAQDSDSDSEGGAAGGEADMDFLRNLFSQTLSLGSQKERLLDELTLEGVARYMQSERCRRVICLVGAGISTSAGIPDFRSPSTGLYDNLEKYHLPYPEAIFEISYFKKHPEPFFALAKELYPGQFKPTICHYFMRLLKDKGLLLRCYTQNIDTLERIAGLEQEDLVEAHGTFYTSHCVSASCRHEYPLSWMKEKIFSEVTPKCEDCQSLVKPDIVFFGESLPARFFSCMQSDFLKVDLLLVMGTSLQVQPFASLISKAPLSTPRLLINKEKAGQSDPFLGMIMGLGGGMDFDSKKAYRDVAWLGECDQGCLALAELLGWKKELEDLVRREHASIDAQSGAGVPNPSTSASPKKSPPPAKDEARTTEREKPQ

| SMILES | observed | action | technique | IC50 |
| --- | --- | --- | --- | --- |
| CCCCCCCCCCCCCC(=S)NCCCC[C@H](NC(=O)[C@@H]1CCCN1C(=O)[C@@H](N)CC(C)C)C(=O)N[C@@H](CCCCN)C(=O)N[C@H](C(=O)O)[C@@H](C)O |  |  |  | 2600 nM |
| Cc1cc(C)nc(SCC(=O)Nc2ncc(Cc3cccc(OCc4cn(-c5ccc(Cl)cc5)nn4)c3)s2)n1 |  | inhibitor |  | 4200 ± 100 nM |
| CCCCCCCCCCCCCC(=S)NCCCC[C@H](NS(C)(=O)=O)C(=O)N[C@@H](C)C(=O)N[C@@H](CCCNC(=N)N)C(N)=O | enzyme activity | inhibitor |  | < 100 nM |
| CC(=S)NCCCC[C@H](NC(=O)[C@H](CCCNC(=N)N)NC(=O)[C@H](C)NC(=O)[C@@H](NC(=O)[C@H](CCC(N)=O)NC(=O)[C@@H](N)CCCCN)[C@@H](C)O)C(=O)N[C@@H](CO)C(=O)N[C@H](C(=O)NCC(=O)NCC(=O)N[C@@H](CCCCN)C(=O)N[C@@H](C)C(=O)O)[C@@H](C)O | enzyme activity | inhibitor | HPLC | 1000 to 2000 nM |
| CC[C@H](C)[C@H](NC(=O)[C@@H](NC(=O)[C@H](CCCCNC(C)=S)NC(=O)[C@H](CC(=O)O)NC(=O)[C@H](CO)NC(=O)[C@@H]1CCCN1C(=O)[C@@H](N)CCSC)[C@@H](C)O)C(=O)NCC(=O)NCC(=O)O | enzyme activity | inhibitor | HPLC | ~11000 nM |
| CCCCCCCCCCCCCC(=S)NCCCC[C@H](NC(=O)[C@H](CCCNC(=N)N)NC(=O)[C@H](C)N)C(=O)N[C@@H](CO)C(=O)N[C@H](C(=O)O)[C@@H](C)O |  |  |  | 2600 nM |
| Cc1cc(C)nc(SCC(=O)Nc2ncc(Cc3cccc(OCc4cn(Cc5ccc(C#N)cc5)nn4)c3)s2)n1 | enzyme activity | inhibitor | fluorescence | 150 nM |
| Cc1cc(C)nc(SCC(=O)Nc2ncc(Cc3cccc(OCc4cn(CCOCCOCCCCCCCl)nn4)c3)s2)n1 | enzyme activity | inhibitor | fluorescence | 740 nM |
| COC(=O)[C@H](C)NC(=O)[C@H](C)NC(=O)[C@H](CCCCNC(C)=S)NC(=O)c1ccc(C(=O)c2ccc(OC/C=C/Cn3cc(COCCOCCOc4cccc5c4C(=O)N(C4CCC(=O)NC4=O)C5=O)nn3)cc2)cc1 (some centres unmarked) | enzyme activity | inhibitor | HPLC | 3500 nM |
| Cc1cc(C)nc(SC(C)C(=O)Nc2ncc(Cc3cccc4ccccc34)s2)n1 (centres unmarked) | enzyme activity | inhibitor | fluorescence | 260 nM |
| O=C(NO)c1ccc(Cn2sc3ccccc3c2=O)cc1 | enzyme activity | inhibitor |  | 7300 nM |

For quick reference, copied from above:
| SMILES | observed | action | technique | IC50 |
| --- | --- | --- | --- | --- |
| COC(=O)[C@H](C)NC(=O)[C@H](C)NC(=O)[C@H](CCCCNC(C)=S)NC(=O)c1ccc(C(=O)c2ccc(OC/C=C/Cn3cc(COCCOCCOc4cccc5c4C(=O)N(C4CCC(=O)NC4=O)C5=O)nn3)cc2)cc1 (some centres unmarked) | enzyme activity | inhibitor | HPLC | 3500 nM |
| Cc1cc(C)nc(SC(C)C(=O)Nc2ncc(Cc3cccc4ccccc34)s2)n1 (centres unmarked) | enzyme activity | inhibitor | fluorescence | 260 nM |
